# Published values pooled from the literature.
# ± gives the spread as reported.
Molecule,test,test system,conditions,scale,quantity,result
teicoplanin,two-compartment population PK,ICU patients,"intravenous infusion, dose not given, 1 h infusion",,clearance,0.838 L/h
CC(=O)O[C@@]12CO[C@@H]1C[C@H](O)[C@@]1(C)C(=O)[C@H](O)C3=C(C)[C@@H](OC(=O)[C@H](O)[C@@H](NC(=O)OC(C)(C)C)c4ccccc4)C[C@@](O)([C@@H](OC(=O)c4ccccc4)[C@H]21)C3(C)C,,LNCaP xenograft mice,"maximally tolerated dose × 3, 21 days",,body weight loss,~30%
C/C=C(/C)C(=O)O[C@H]1CC[N+]2([O-])CC=C(COC(=O)[C@@](O)([C@H](C)OC)C(C)(C)O)[C@H]12 (stereo partly drawn),,human whole blood,"1000 ng/mL, 60 min, 37 °C",,blood-to-plasma ratio,0.897
CCCCCOc1ccc(-c2cc(-c3ccc(C(=O)N[C@H]4C[C@@H](O)[C@@H](O)NC(=O)[C@@H]5[C@@H](O)[C@@H](C)CN5C(=O)[C@H]([C@H](O)CC(N)=O)NC(=O)[C@H]([C@H](O)[C@@H](O)c5ccc(O)c(OS(=O)(=O)O)c5)NC(=O)[C@@H]5C[C@@H](O)CN5C(=O)[C@H]([C@@H](C)O)NC4=O)cc3)no2)cc1,,"young infants, plasma","intravenous, 7 and 10 mg/kg/day pooled, day 4, mean, repeat dosing",,clearance at steady state,0.6 mL/min
NC(=O)c1nc(F)c[nH]c1=O,UV-Vis spectrophotometry,supercritical CO2,"120 min, 328 K, 27 MPa, 828.51 kg/m^3",,solubility,1950 µg/mL
[123I]c1cncc(OC[C@@H]2CCN2)c1,SPECT,"human, frontal lobe","intravenous bolus, 7.35 mCi",relative to: tissue over plasma,tissue/plasma ratio,29.1
CSCC[C@@H]1NC(=O)[C@H](CC(=O)O)NC(=O)CNC(=O)[C@H](CCCNC(=N)N)NC(=O)[C@H](C)NC(=O)[C@H](CCC(=O)O)NC(=O)[C@H](CCCNC(=N)N)NC(=O)[C@@H]2CSSC[C@@H]3NC(=O)[C@H](CO)NC(=O)[C@H]([C@@H](C)O)NC(=O)[C@@H]4CCCN4C(=O)[C@H](C)NC(=O)[C@H](Cc4c[nH]c5ccccc45)NC(=O)[C@H](CC(=O)O)NC(=O)CNC(=O)[C@H](CCCNC(=N)N)NC(=O)CNC(=O)[C@H](CCC(N)=O)NC(=O)[C@@H]4CCCN4C(=O)[C@@H](NC(=O)CNC(=O)C(C)F)CSSC[C@H](NC(=O)CNC(=O)[C@H](C)NC(=O)[C@H](CC(C)C)NC(=O)[C@H](CSSC[C@@H](C(=O)NCC(N)=O)NC(=O)[C@H]([C@@H](C)O)NC(=O)[C@H](CCCNC(=N)N)NC(=O)[C@@H]4CCCN4C1=O)NC(=O)[C@H](CC(=O)O)NC(=O)[C@H](CO)NC(=O)[C@H](CC(=O)O)NC(=O)[C@H](CCC(N)=O)NC(=O)[C@H](CO)NC3=O)C(=O)N[C@@H](C(C)C)C(=O)N2 (stereo partly drawn) [fluorine-18 labelled],,"nude mice U-87 MG xenograft, blood","intravenous, 2.5 h",,tissue uptake,0.29 ± 0.09 %ID/g
CC1N=C(c2ccccc2F)c2cc(N3CCOCC3)ccc2NC1=O (stereo not drawn),shake flask,PBS,"24 h, pH 7.4",,solubility,> 100 µM
CC(=O)CO,,human skin ex vivo,"500 µL infinite dose, 5% m/V, glycerol/water vehicle",,steady-state flux,58.3 ± 39.9 µg/cm²/h
CCCCCOc1ccc(-c2cc(-c3ccc(C(=O)N[C@H]4C[C@@H](O)[C@@H](O)NC(=O)[C@@H]5[C@@H](O)[C@@H](C)CN5C(=O)[C@H]([C@H](O)CC(N)=O)NC(=O)[C@H]([C@H](O)[C@@H](O)c5ccc(O)c(OS(=O)(=O)O)c5)NC(=O)[C@@H]5C[C@@H](O)CN5C(=O)[C@H]([C@@H](C)O)NC4=O)cc3)no2)cc1,,"human paediatric patients 6 to sample C years, plasma","intravenous, 3 mg/kg once daily, day 7, mean",,AUC(0-tau),248 µg·h/mL
COc1cccc2c1cc1c3c(cc4c(c32)OCO4)C(=O)N1,HPLC,"rat (Wistar, male), urine","subcutaneous, 2 mg of aristolochic acid I, 24 h collection",,urine concentration,0.018 µM
CN[C@@](C)(C[18F])C(=O)O,,"SCID mouse A549 xenograft, heart","120 min, post injection",,tissue uptake,3.7 ± 0.6 %ID/g

# Repeated from above:
Molecule,test,test system,conditions,scale,quantity,result
CC(=O)CO,,human skin ex vivo,"500 µL infinite dose, 5% m/V, glycerol/water vehicle",,steady-state flux,58.3 ± 39.9 µg/cm²/h
CCCCCOc1ccc(-c2cc(-c3ccc(C(=O)N[C@H]4C[C@@H](O)[C@@H](O)NC(=O)[C@@H]5[C@@H](O)[C@@H](C)CN5C(=O)[C@H]([C@H](O)CC(N)=O)NC(=O)[C@H]([C@H](O)[C@@H](O)c5ccc(O)c(OS(=O)(=O)O)c5)NC(=O)[C@@H]5C[C@@H](O)CN5C(=O)[C@H]([C@@H](C)O)NC4=O)cc3)no2)cc1,,"human paediatric patients 6 to sample C years, plasma","intravenous, 3 mg/kg once daily, day 7, mean",,AUC(0-tau),248 µg·h/mL
